Published values pooled from the literature.
pIC50: −log10 of the molar value.
PARP1: Poly [ADP-ribose] polymerase 1 (PARP1, Homo sapiens, UniProt P09874)
Sequence of UniProt P09874 (whole entry, looked up): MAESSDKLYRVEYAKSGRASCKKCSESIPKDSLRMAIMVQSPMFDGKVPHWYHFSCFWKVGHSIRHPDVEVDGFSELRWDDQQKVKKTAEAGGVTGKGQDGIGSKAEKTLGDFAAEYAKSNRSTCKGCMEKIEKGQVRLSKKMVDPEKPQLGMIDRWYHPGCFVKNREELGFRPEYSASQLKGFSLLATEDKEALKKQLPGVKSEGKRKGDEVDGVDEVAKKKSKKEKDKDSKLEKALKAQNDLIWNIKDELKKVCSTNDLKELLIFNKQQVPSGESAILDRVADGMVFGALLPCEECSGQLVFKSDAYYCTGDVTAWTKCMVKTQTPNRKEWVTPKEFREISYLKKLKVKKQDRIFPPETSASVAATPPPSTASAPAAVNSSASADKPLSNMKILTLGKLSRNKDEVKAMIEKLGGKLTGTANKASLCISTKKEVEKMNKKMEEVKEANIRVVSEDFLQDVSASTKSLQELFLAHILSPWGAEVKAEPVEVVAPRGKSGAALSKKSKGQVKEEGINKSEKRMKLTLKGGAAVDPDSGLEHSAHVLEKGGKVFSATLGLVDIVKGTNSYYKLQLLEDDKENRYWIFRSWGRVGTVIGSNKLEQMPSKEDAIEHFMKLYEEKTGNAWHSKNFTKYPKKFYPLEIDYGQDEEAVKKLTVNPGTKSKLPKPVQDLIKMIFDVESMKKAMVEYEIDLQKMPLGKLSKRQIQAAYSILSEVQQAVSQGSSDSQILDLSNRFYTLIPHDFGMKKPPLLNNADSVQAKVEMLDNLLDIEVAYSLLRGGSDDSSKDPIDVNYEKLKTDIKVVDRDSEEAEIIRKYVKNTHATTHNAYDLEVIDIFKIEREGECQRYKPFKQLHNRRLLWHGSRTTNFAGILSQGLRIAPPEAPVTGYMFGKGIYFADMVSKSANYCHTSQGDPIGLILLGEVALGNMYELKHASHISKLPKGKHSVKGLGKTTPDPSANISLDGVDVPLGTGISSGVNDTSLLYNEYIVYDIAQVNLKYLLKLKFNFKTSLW
ADORA2B: Adenosine receptor A2b (ADORA2B, Homo sapiens, UniProt P29275)
Sequence of UniProt P29275 (whole entry, looked up): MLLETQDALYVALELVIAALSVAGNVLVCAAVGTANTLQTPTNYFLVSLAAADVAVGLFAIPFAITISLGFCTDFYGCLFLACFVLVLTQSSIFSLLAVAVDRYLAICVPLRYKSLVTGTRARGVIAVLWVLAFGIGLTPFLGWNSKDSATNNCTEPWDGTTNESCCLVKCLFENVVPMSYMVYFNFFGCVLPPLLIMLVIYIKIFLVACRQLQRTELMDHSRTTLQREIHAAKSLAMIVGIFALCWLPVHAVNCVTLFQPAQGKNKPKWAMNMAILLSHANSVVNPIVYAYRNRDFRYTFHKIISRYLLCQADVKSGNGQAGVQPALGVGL
Sequence of UniProt Q9UGN5 (whole entry, looked up): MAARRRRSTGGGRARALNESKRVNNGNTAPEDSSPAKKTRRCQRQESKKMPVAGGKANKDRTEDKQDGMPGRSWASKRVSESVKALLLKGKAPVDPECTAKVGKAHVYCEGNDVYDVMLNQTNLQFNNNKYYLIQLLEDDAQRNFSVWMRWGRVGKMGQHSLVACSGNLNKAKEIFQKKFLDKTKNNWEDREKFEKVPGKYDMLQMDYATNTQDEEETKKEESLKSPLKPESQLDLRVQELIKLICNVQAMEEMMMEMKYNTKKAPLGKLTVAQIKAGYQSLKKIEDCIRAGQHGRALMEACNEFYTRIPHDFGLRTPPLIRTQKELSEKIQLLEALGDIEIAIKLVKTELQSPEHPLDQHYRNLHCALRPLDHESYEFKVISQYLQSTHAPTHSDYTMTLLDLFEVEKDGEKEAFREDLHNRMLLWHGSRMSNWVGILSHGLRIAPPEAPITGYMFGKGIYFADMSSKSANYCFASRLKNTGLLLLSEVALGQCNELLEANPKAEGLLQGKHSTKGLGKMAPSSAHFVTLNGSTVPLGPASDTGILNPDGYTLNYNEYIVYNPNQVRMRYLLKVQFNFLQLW
Sequence of UniProt O15379 (whole entry, looked up): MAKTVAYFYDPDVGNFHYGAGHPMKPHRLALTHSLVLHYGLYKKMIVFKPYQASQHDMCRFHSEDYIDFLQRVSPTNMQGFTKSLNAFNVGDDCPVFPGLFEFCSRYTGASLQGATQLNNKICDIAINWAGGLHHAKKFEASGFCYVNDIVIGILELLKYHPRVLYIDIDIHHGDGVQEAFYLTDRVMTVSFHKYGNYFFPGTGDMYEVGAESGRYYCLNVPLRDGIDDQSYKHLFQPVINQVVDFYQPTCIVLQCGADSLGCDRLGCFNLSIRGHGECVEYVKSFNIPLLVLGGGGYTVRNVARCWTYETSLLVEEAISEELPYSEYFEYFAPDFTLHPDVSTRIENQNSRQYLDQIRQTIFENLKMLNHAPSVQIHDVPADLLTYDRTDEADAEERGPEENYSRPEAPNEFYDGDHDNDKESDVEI
Sequence of UniProt P00367 (whole entry, looked up): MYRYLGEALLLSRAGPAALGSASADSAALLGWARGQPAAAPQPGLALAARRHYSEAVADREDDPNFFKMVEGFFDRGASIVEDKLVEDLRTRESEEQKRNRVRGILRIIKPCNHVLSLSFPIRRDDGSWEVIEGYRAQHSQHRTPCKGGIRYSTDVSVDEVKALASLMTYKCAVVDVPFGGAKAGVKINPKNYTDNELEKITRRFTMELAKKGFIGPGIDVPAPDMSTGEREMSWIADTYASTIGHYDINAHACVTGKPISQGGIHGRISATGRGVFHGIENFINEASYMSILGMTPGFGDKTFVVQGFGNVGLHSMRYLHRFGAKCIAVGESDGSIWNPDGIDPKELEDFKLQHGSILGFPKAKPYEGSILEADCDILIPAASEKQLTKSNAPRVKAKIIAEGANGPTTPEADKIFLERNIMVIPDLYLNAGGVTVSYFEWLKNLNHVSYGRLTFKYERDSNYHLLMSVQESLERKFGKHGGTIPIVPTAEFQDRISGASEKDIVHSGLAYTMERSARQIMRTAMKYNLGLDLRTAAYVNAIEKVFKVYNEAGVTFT
Sequence of UniProt P34947 (whole entry, looked up): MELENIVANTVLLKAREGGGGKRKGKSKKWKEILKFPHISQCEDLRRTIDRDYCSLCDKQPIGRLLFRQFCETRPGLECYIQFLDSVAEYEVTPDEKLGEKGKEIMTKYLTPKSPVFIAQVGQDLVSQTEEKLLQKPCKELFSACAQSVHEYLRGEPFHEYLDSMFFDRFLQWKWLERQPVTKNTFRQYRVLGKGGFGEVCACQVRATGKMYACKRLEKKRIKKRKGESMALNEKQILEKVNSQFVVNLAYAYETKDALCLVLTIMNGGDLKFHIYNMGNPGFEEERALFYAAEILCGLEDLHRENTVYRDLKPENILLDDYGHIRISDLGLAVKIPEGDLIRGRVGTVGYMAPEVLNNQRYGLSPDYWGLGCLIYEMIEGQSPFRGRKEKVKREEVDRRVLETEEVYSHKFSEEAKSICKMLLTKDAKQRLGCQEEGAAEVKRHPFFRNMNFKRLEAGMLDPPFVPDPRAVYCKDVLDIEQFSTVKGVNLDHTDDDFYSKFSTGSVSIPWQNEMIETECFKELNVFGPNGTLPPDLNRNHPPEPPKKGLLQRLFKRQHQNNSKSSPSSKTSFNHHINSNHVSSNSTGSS
Sequence of UniProt Q8BLF1 (whole entry, looked up): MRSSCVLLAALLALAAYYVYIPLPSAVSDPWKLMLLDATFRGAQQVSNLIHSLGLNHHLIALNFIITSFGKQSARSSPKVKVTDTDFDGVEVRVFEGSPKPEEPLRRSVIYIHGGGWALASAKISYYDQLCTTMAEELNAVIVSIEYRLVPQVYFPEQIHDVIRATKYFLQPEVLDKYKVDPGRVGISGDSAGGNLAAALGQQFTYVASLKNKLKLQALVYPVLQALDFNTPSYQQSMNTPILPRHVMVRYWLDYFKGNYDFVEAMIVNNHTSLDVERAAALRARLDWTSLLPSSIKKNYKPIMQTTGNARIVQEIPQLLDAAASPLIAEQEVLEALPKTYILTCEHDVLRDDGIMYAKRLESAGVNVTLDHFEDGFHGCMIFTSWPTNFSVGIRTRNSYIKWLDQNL
Sequence of UniProt P08588 (whole entry, looked up): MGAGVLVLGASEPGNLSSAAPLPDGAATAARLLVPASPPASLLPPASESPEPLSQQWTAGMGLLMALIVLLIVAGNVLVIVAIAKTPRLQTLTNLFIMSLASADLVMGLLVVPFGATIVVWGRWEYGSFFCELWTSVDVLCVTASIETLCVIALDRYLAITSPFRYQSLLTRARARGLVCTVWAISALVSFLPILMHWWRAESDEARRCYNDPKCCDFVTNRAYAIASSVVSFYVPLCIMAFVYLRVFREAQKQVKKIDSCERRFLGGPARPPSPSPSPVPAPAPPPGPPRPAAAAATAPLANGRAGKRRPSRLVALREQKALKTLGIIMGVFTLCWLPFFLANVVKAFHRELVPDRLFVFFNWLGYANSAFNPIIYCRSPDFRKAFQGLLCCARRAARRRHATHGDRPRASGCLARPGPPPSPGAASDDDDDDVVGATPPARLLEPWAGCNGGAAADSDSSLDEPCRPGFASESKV
Sequence of UniProt P48426 (whole entry, looked up): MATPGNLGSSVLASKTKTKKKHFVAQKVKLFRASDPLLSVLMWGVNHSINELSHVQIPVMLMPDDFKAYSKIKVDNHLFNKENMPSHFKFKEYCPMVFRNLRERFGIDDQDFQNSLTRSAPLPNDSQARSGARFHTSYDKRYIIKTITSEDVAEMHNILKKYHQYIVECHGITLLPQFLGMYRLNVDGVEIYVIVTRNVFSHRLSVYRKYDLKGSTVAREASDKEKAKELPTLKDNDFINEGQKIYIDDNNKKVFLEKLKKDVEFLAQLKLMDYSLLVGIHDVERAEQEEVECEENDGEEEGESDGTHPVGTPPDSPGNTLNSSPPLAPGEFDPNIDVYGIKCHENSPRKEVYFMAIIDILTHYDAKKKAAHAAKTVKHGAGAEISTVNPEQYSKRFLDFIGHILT

The inhibition of O=C(CC1CC2CCC1C2)NCCNC(=O)Cn1c(=O)[nH]c(=O)c2ccccc21 (stereo not shown) is reported as 0% (PARP1; enzyme activity, inhibitor; 5 nM).
C=C(NC(=O)c1csc(-c2nc3c(cc2O)-c2nc(cs2)C(=O)NC(C(C)O)C(=O)NC(=C(C)OC)c2nc(cs2)C(=O)NC2c4nc(cs4)C(=O)NC(COC(=O)c4c5c6c(cccc6n4O)COC(=O)C(OC4CC(C)(O)C(N(C)C)C(C)O4)C2OC5)c2nc-3cs2)n1)C(N)=O (stereo not shown) gave a Cmax of 663 ng/mL (ICR mice, Streptococcus pneumoniae ATCC 49169 infected, immunocompromised, blood; intravenous, 16 mg/kg/day twice daily).
With CN(C(=O)n1ccnn1)c1ccccc1 the inhibition was under 50% (Acyl-protein thioesterase 1 (Lypla1, Mus musculus, UniProt P97823); 1 µM).
The inhibition of C[Si]1(C[C@H](CN)CC(=O)O)CCCC1 is reported as 0% (ADORA2B; ligand displacement, radioligand; 70 µM).
For COC1CN([C@H]2CC[C@H]([C@@]3(C)Oc4c(Cl)cc(C(=O)NCc5c(SC)cc(C)[nH]c5=O)c(C)c4O3)CC2)C1, “log2 fold change” read 0.603 (RNA-seq, refers to: MCF2L mouse homolog; mouse, HT-1376 xenograft, whole blood; dose not given; relative to: vehicle).
CN(C)C(=O)n1ccnn1 gave an inhibition of under 50% (Neutral cholesterol ester hydrolase 1 (Mus musculus, UniProt Q8BLF1); probe labeling, inhibitor, gel-based competitive ABPP; mouse T-cell proteome; 1 µM, 30 min, 37 °C).
N=C(N)NCCCC(NC(=O)C(CC(=O)NO)Cc1ccc2ccccc2c1)C(=O)NC(Cc1c[nH]c2ccccc12)C(=O)NC(CCC(=O)O)C(N)=O (stereo not shown) has an inhibition of 0% (Interstitial collagenase (MMP1, Homo sapiens, UniProt P03956); 1 µM).
With O=C1c2sc(-c3ccc(N4CCC(CO)CC4)nc3F)nc2CCN1c1cccnc1 the inhibition was -9% (Cannabinoid receptor 1 (CNR1, Homo sapiens, UniProt P21554); ligand displacement, radioligand; 1 µM).
Under “log2 fold change”, Cc1ncsc1-c1ccc(C(C)NC(=O)C2CC(O)CN2C(=O)C(NC(=O)CCCCCCCCCCN2CCCC(Nc3ncc(Cl)c(Nc4ccccc4S(=O)(=O)C(C)C)n3)C2)C(C)(C)C)cc1 (stereo not shown) is recorded as -5.41 (22Rv1; RNA-seq, refers to: VWA5B1 mRNA; concentration not given; relative to: DMSO).
The inhibition of Cc1cc(C(=O)NCCNC(=O)c2cccc(COc3ccccc3C(N)=O)c2)n[nH]1 is reported as 100% (PARP1; enzyme activity, inhibitor; 0.104 µM).
For CN1CCCNC(=O)c2cccc(c2)C(=O)NCCCN(C)CCCNc2cccc3c2C(=O)c2cccc(c2C3=O)NCCC1, “log2 fold change” read -1.06 (SAS; RNA-Seq, refers to: SETD4 mRNA; 1 µM, 6 h; relative to: untreated cells).
For O=C1c2sc(-c3ccc(N4CCC(F)C4)nc3F)nc2CCN1c1cccnc1 (stereo not shown), the inhibition was 2% (Beta-1 adrenergic receptor (ADRB1, Homo sapiens, UniProt P08588); ligand displacement, radioligand; 1 µM).
Clc1ccc(NCc2ccc(Br)cc2)cc1 gave an inhibition of 81.7% (Breakpoint cluster region protein, GAP domain (Homo sapiens, UniProt P11274); GAP activity; 10 µM, selectivity counter screen).
For O=C(CCCc1ccc2c(c1)OCCO2)NCCNC(=O)Cn1c(=O)[nH]c(=O)c2ccccc21, the inhibition was 0% (PARP1; enzyme activity, inhibitor; 5 nM).
CN1CC[C@@H](COc2cnc(C#N)cc2-c2ccn3nc(NC(=O)C4CC4)cc3c2)C1 has an inhibition of -2% (Phosphatidylinositol 5-phosphate 4-kinase type-2 alpha (PIP4K2A, Homo sapiens, UniProt P48426); enzyme activity, inhibitor; 1 µM).
Cc1nn(-c2cccc(N)c2)c(=O)c2cnc(Nc3ccc(N4CCNCC4)cc3)nc12 gave a pIC50 of under 5.00 (G protein-coupled receptor kinase 5 (GRK5, Homo sapiens, UniProt P34947); enzyme activity, inhibitor).
N#Cc1ccnc(N2C(=O)CC[C@H]2C(=O)N(c2cncc(F)c2)[C@H](C(=O)NC2CC(F)(F)C2)c2ccccc2Cl)c1: inhibition “no inhibition” (GLUD1 (Homo sapiens, UniProt P00367); enzyme activity; 100 µM).
With O=C(Nc1ccc(C(F)F)cc1)[C@H](CC1CCCCC1)Nc1nn2c(=O)ccnc2s1 the inhibition was -8% (Receptor-type tyrosine-protein phosphatase mu (Homo sapiens, UniProt P28827); enzyme activity, inhibitor; 10 µM).
For COc1ccc2nc(C)ccc2c1Nc1sn(C)c(=O)c1C#N, the inhibition was 0% (Poly [ADP-ribose] polymerase 2 (PARP2, Homo sapiens, UniProt Q9UGN5); enzyme activity, inhibitor; 10 µM).
With Cc1c(COc2cc(OCc3cccc(C#N)c3)c(CN3CCCC[C@@H]3C(=O)O)cc2Cl)cccc1-c1cccc(OCCCCCCC(=O)NO)c1 the inhibition was 96.9% (Histone deacetylase 3 (HDAC3, Homo sapiens, UniProt O15379); enzyme activity, inhibitor; 1 µM).
C[Si](C)(C)C[C@@H](CN)CC(=O)O gave an inhibition of 2% (ADORA2B; ligand displacement, radioligand; 75 µM).
The inhibition of COc1cc(OC)c(F)c(/C=C/c2cnc3ccn(S(=O)(=O)c4cn(CCF)cn4)c3n2)c1F is reported as 0% (Ephrin type-A receptor 2 (EPHA2, Homo sapiens, UniProt P29317); 10 nM).
C=CC(=O)Nc1cccc(Cn2ncc3cnc(Nc4cnn(CCOC)c4)nc32)c1 — result for “percent of control”: 100% (CDKL5 human; binding, KINOMEscan; 100 nM; lower = stronger binding).
CNS(=O)(=O)Nc1nccc(Cc2c(C)c3ccc(Oc4ncccc4F)cc3oc2=O)c1F has a pIC50 of under 6.00 (NCI-H2452; cell viability; 7 days).
The Cmax of C=C1CC[C@H](OCCCNC(=O)CCOCCOCCOCCOCCOCCOCCOCCOCCOCCOCCOCCOCCOCCOCCOCCOCCOCCOCCOCCOCCOCCOCCOCCOCCOCCOCCOCCOCCOCCOCCOCCOCCOCCOCCOCCOCCNC(=O)CCN2C(=O)CC(SC[C@H](NC(=O)[C@H](Cc3ccccc3)NC(=O)[C@H](CC(N)=O)NC(=O)[C@H](Cc3c[nH]cn3)NC(=O)[C@@H](NC(=O)[C@H](CC(=O)O)NC(=O)[C@H](CCC(N)=O)NC(=O)[C@H](CC(C)C)NC(=O)[C@H](CCCCN)NC(=O)[C@H](CCCCN)NC(=O)[C@H](CCCNC(=N)N)NC(=O)[C@H](CC(C)C)NC(=O)[C@H](Cc3c[nH]c4ccccc34)NC(=O)[C@H](CCC(=O)O)NC(=O)[C@@H](NC(=O)[C@H](CCCNC(=N)N)NC(=O)[C@H](CCC(=O)O)NC(=O)[C@H](CCSC)NC(=O)[C@H](CO)NC(=O)[C@H](CC(N)=O)NC(=O)[C@H](CC(C)C)NC(=O)[C@H](Cc3c[nH]cn3)NC(=O)[C@H](CCCCN)NC(=O)CNC(=O)[C@H](CC(C)C)NC(=O)[C@H](CC(N)=O)NC(=O)[C@H](Cc3c[nH]cn3)NC(=O)[C@H](CCSC)NC(=O)[C@H](CC(C)C)NC(=O)[C@H](CCC(N)=O)NC(=O)[C@@H](NC(=O)[C@H](CCC(=O)O)NC(=O)[C@H](CO)NC(=O)[C@@H](NC(=O)[C@@H](N)CO)C(C)C)[C@@H](C)CC)C(C)C)C(C)C)C(=O)O)C2=O)C/C1=C/C=C1\CCC[C@]2(C)[C@@H]([C@H](C)CCCC(C)(C)O)CC[C@@H]12 (stereo partly shown) is reported as 2560 ng/mL (male Sprague-Dawley rat, plasma; intravenous, 100 µg/kg, single dose).

For quick reference, copied from above:
The Cmax of C=C1CC[C@H](OCCCNC(=O)CCOCCOCCOCCOCCOCCOCCOCCOCCOCCOCCOCCOCCOCCOCCOCCOCCOCCOCCOCCOCCOCCOCCOCCOCCOCCOCCOCCOCCOCCOCCOCCOCCOCCOCCOCCOCCNC(=O)CCN2C(=O)CC(SC[C@H](NC(=O)[C@H](Cc3ccccc3)NC(=O)[C@H](CC(N)=O)NC(=O)[C@H](Cc3c[nH]cn3)NC(=O)[C@@H](NC(=O)[C@H](CC(=O)O)NC(=O)[C@H](CCC(N)=O)NC(=O)[C@H](CC(C)C)NC(=O)[C@H](CCCCN)NC(=O)[C@H](CCCCN)NC(=O)[C@H](CCCNC(=N)N)NC(=O)[C@H](CC(C)C)NC(=O)[C@H](Cc3c[nH]c4ccccc34)NC(=O)[C@H](CCC(=O)O)NC(=O)[C@@H](NC(=O)[C@H](CCCNC(=N)N)NC(=O)[C@H](CCC(=O)O)NC(=O)[C@H](CCSC)NC(=O)[C@H](CO)NC(=O)[C@H](CC(N)=O)NC(=O)[C@H](CC(C)C)NC(=O)[C@H](Cc3c[nH]cn3)NC(=O)[C@H](CCCCN)NC(=O)CNC(=O)[C@H](CC(C)C)NC(=O)[C@H](CC(N)=O)NC(=O)[C@H](Cc3c[nH]cn3)NC(=O)[C@H](CCSC)NC(=O)[C@H](CC(C)C)NC(=O)[C@H](CCC(N)=O)NC(=O)[C@@H](NC(=O)[C@H](CCC(=O)O)NC(=O)[C@H](CO)NC(=O)[C@@H](NC(=O)[C@@H](N)CO)C(C)C)[C@@H](C)CC)C(C)C)C(C)C)C(=O)O)C2=O)C/C1=C/C=C1\CCC[C@]2(C)[C@@H]([C@H](C)CCCC(C)(C)O)CC[C@@H]12 (stereo partly shown) is reported as 2560 ng/mL (male Sprague-Dawley rat, plasma; intravenous, 100 µg/kg, single dose).
Clc1ccc(NCc2ccc(Br)cc2)cc1 gave an inhibition of 81.7% (Breakpoint cluster region protein, GAP domain (Homo sapiens, UniProt P11274); GAP activity; 10 µM, selectivity counter screen).
